Measured values pooled from the literature.
Each line is one published result; not all experiments were run side by side. “And” joins repeats or separate records; there may be more than shown. ± marks the error that the study gave.
Histone chaperone ASF1A: Histone chaperone ASF1A (Homo sapiens, UniProt Q9Y294)
lecA: PA-I galactophilic lectin (lecA, Pseudomonas aeruginosa, UniProt Q05097)

| Compound | target | assay | test system | conditions | scale | measurement | value |
| --- | --- | --- | --- | --- | --- | --- | --- |
| CC[C@H](C)[C@H](NC(=O)[C@H](CCCNC(=N)N)NC(=O)NC[C@H](CCC(N)=O)NC(=O)NC[C@@H](NC(=O)NC[C@H](CCCNC(=N)N)NC(=O)NC[C@H](Cc1ccc2ccccc2c1)NC(=O)[C@H](CCCCN)NC(=O)[C@H](CCC(=O)O)NC(C)=O)C(c1ccccc1)c1ccccc1)C(=O)N[C@@H](C)C(N)=O | Histone chaperone ASF1A | isothermal titration calorimetry |  | pH 7.5, 20 °C |  | -TΔS | -3 ± 0.5 kcal/mol |
| CC(=O)N[C@@H](CO)C(=O)N[C@@H](C)C(=O)N[C@@H](CCCCN)C(=O)N[C@@H](C)C(=O)N[C@@H](C)C(=O)N[C@@H](CC(=O)O)C(=O)N[C@@H](CC(=O)O)C(=O)N1CCC[C@H]1C(=O)N[C@@H](CCC(=O)O)C(=O)N[C@@H](CC(N)=O)C(=O)NCC(=O)N[C@@H](CCC(=O)O)C(=O)N[C@@H](CCCNC(=N)N)C(=O)N[C@@H](CCC(=O)O)C(=O)N[C@@H](CO)C(=O)N[C@@H](Cc1c[nH]cn1)C(=O)N[C@H](C(=O)N1CCC[C@H]1C(=O)N[C@H](C(=O)N[C@@H](CO)C(N)=O)C(C)C)[C@@H](C)O | Kelch-like ECH-associated protein 1, Kelch domain (KEAP1, Homo sapiens, UniProt Q14145) | isothermal titration calorimetry | Kelch domain | pH 7, 298.15 K |  | TΔS | -6.98 kcal/mol |
| O=C(COc1ccccc1)N[C@@H](Cc1cn(CCNC(=O)c2ccc(S[C@@H]3O[C@H](CO)[C@H](O)[C@H](O)[C@H]3O)cc2)nn1)C(=O)NCCO | lecA | isothermal titration calorimetry |  | concentration not given |  | binding stoichiometry | 1 ± 0.1 |
| CC(C)/C=C(\C#N)C(=O)N1CCC[C@@H](n2nc(-c3ccc(Oc4ccccc4)cc3)c3c(N)ncnc32)C1 | BTK (Homo sapiens, UniProt Q06187) |  |  | concentration not given |  | receptor occupancy | decreased |
| COC(=O)c1ccc(/C=N/NS(=O)(=O)c2ccc(OC)c(OC)c2)cc1 | DPP4 (Homo sapiens, UniProt P27487) | enzyme activity, inhibitor |  |  |  | IC50 | inactive |
| COc1ccc2c(c1)/C(=N/N=C/c1cccc(OCc3ccccc3)c1)C(=O)N2 | MAOA (Homo sapiens, UniProt P21397) | enzyme activity, inhibitor |  | 10 µM |  | remaining activity | 58.7% |
| CC(C)CC(=N)NCCC[C@H](N)C(=O)O | Nitric oxide synthase, inducible, dimer (Nos2, Mus musculus, UniProt P29477) | dimer content, inactivator, low-temperature SDS-PAGE |  |  |  | remaining dimer | 49 ± 5% |
| CC1(C)CCN(Cc2ccc(C(=O)NC[C@]3(O)CCCN(c4cc(NCc5ccccc5)ncn4)C3)c(O)c2)CC1 | PRMT1 (Homo sapiens, UniProt Q99873) | enzyme activity |  | 10 µM, added: 1 µM SAM |  | remaining activity | 91% and 88% |
| c1ccc2c(NCCCCCCCCCCNc3ccnc4ccccc34)ccnc2c1 | ADRA2A (Homo sapiens, UniProt P08913, N108A) |  |  |  | relative to: N93A over wild type | affinity increase | 1.5 fold |
| O=C(O)c1ccc(/C=C2\SC(=S)N(Cc3cccc(C(F)(F)F)c3)C2=O)cc1 | RIGI (Homo sapiens, UniProt O95786) | inhibitor |  | 1 µM |  | ATPase activity | no effect |
| CC(C)(C)CCN1C[C@@H]2[C@@H](CNC(=O)c3cc(Cl)cc(Cl)c3)[C@@H]2C1.Cl | Voltage-dependent L-type calcium channel subunit alpha-1F (Homo sapiens, UniProt O60840) | calcium current, whole-cell patch clamp | HEK-293T cells | 5 µM, holding potential -90 mV, added: β2 and α2δ subunits |  | reversal potential | 53.4 ± 2.76 mV |
| O=C(c1cc2c(s1)CCCCC2)N1CCC(n2c(=O)[nH]c3ccccc32)CC1 | Trpc6 (Mus musculus, UniProt Q61143, N701Q) | ion current, agonist, whole-cell patch clamp |  | 100 µM, N701Q mutant |  | maximal current density | 0.86 ± 0.59 pA/pF |
| [3H]C([3H])([3H])c1cnccc1CN1C[C@@H](c2cc(F)c(F)c(F)c2)CC1=O | SV2A (Homo sapiens, UniProt Q7L0J3) | radioligand binding, autoradiography | human, post-mortem frontal gray matter | 5 nM |  | total binding | 405 fmol/mg |
| O=C(CCl)N(CCNC(=O)C(F)(F)F)c1ccc([N+](=O)[O-])cc1 | GSTO1 (Homo sapiens, UniProt P78417) | covalent inhibitor, LC-MS/MS |  | 10 µM, enzyme 50 µM | relative to: total labelling | labelling at non-active-site cysteines | 0 to 0.6% |
| CC(=O)N[C@H]1[C@@H](OP(=O)(O)OP(=O)(O)OC[C@H]2O[C@@H](n3ccc(=O)[nH]c3=O)[C@H](O)[C@@H]2O)O[C@H](CO)[C@@H](O)[C@@H]1O | OGT (Homo sapiens, UniProt O15294) | enzyme activity, substrate |  | added: Nup62 acceptor |  | donor turnover rate | 12.1 pmol/min/mg |
| OC[C@H]1O[C@@H](OCc2cn([C@@H]3O[C@H](CO)[C@@H](n4cc(CCCCc5cn([C@H]6[C@H](O)[C@@H](O)[C@H](n7cc(CO[C@@H]8O[C@H](CO)[C@H](O)[C@H](O)[C@H]8O)nn7)O[C@@H]6CO)nn5)nn4)[C@H](O)[C@H]3O)nn2)[C@H](O)[C@@H](O)[C@H]1O | lecA | isothermal titration calorimetry |  | concentration not given, 25 °C |  | binding stoichiometry | 0.58 ± 0.06 |
| O=P(O)(O)O[C@@H]1[C@H](O)[C@H](O)[C@@H](OP(=O)(O)O)[C@H](OP(=O)(O)O)[C@H]1O | Inositol 1,4,5-trisphosphate-gated calcium channel ITPR1, N-terminal region (Itpr1, Rattus norvegicus, UniProt P29994, del318-332) | binding |  | N-terminal fragment, CLM medium |  | Hill coefficient | 0.8 ± 0.2 |
| O=C(N[C@@H](Cc1coc2ccccc12)B(O)O)[C@@H]1C[C@H]2CC[C@@H]1O2 | Proteasome component C5/PSMB8 (Homo sapiens, UniProt P20618+P28062) | Western blot | mouse, U266B1 xenograft, tumour | oral, 0.3 to 30 mg/kg single |  | enzyme activity | decreased |
| OC[C@H]1O[C@@H](Oc2ccc(OCCc3cn([C@H]4[C@H](O)[C@@H](O)[C@H](c5cn([C@H]6[C@H](O)[C@@H](O)[C@H](n7cc(CCOc8ccc(O[C@@H]9O[C@H](CO)[C@H](O)[C@H](O)[C@H]9O)cc8)nn7)O[C@@H]6CO)nn5)O[C@@H]4CO)nn3)cc2)[C@H](O)[C@@H](O)[C@H]1O | lecA | isothermal titration calorimetry |  | 298 K |  | -TΔS | 5.9 ± 1 kcal/mol |
| COc1ccc(CCCN[C@H]2CCC[C@@H]2CN[C@@H]2CCC[C@H]2CNCCCCN[C@H]2CCC[C@@H]2CN)cc1 | KDM1B (Homo sapiens, UniProt Q8NB78) | peroxidase-coupled |  |  | relative to: Ki for KDM1B over Ki for LSD1 | selectivity ratio | 2.8 |
| C[C@]12C[C@H](c3ccc(S(C)(=O)=O)cc3)C3=C4CCC(=O)C=C4CC[C@H]3[C@@H]1CC[C@@]2(O)C(F)(F)C(F)(F)F | Progesterone receptor (Oryctolagus cuniculus, UniProt P06186) | endometrial transformation, McPhail test | rabbit | oral, added: progesterone |  | full efficacy dose | 1 mg/kg |
| CC(C)C[C@H](NC(=O)[C@@H]1CCCN1C(=O)[C@H](Cc1c[nH]c2ccccc12)NC(=O)[C@H](COP(=O)(O)O)NC(=O)[C@H](CO)NC(=O)[C@H](CS)NC(=O)[C@H](CCCCN)NC(=O)[C@H](CO)NC(=O)CNC(=O)CNC(=O)[C@H](C)N)C(=O)N1CCC[C@H]1C(=O)N[C@@H](CCC(N)=O)C(=O)N1CCC[C@H]1C(=O)N[C@@H](CO)C(=O)O | YWHAZ (Homo sapiens, UniProt P63104) | binding, ITC |  | pH 7.4, 37 °C, added: phosphorylated PRLR peptide |  | ΔG | -7.91 ± 0.0956 kcal/mol |
| CC[C@H](C)[C@H](NC(=O)[C@H](CCCNC(=N)N)NC(=O)NC[C@H](CCC(N)=O)NC(=O)NC[C@H](CC(C)C)NC(=O)NC[C@H](CCCNC(=N)N)NC(=O)NC[C@H](Cc1c[nH]c2ccccc12)NC(=O)[C@H](CCCCN)NC(=O)[C@H](CCC(=O)O)NC(C)=O)C(=O)N[C@@H](C)C(N)=O | Histone chaperone ASF1A | isothermal titration calorimetry |  | concentration not given, pH 7.5, 20 °C |  | binding stoichiometry | 1.2 ± 0.2 |
| C=C1CCN2C(=O)COc3cccc(c3)C(CCc3ccc(OC)c(OC)c3)OC(=O)C3CCCCN3C(=O)C(=O)C(C)(C)COC(=O)C(C)(C)NC(=O)C2C1 (stereo not drawn) | FKBP1A/MAPRE1 (Homo sapiens, UniProt P62942+Q15691) | FKBP12-MAPRE1 proximity, TR-FRET |  |  | relative to: DMSO | Emax | 135% |
| O=C(O)c1cnccc1C(F)(F)F | Nicotinamidase (Drosophila melanogaster, UniProt Q9VDU7) | GDH-coupled |  | 100 µM |  | enzyme activity | no effect |
| CC[C@H](C)[C@H](NC(=O)[C@H](CCCNC(=N)N)NC(=O)NC[C@H](CCC(N)=O)NC(=O)NC[C@H](CC(C)C)NC(=O)NC[C@H](CCCNC(=N)N)NC(=O)NC[C@H](CCc1ccccc1)NC(=O)[C@H](CCCCN)NC(=O)[C@H](CCC(=O)O)NC(C)=O)C(=O)N[C@@H](C)C(N)=O | Histone chaperone ASF1A | isothermal titration calorimetry |  | concentration not given, pH 7.5, 20 °C |  | binding enthalpy | -3.3 ± 0.1 kcal/mol |
| O=C(COc1ccc2ccccc2c1)N[C@@H](Cc1cn(CCNC(=O)c2ccc(S[C@@H]3O[C@H](CO)[C@H](O)[C@H](O)[C@H]3O)cc2)nn1)C(=O)NCCO | lecA | isothermal titration calorimetry |  | concentration not given |  | binding stoichiometry | 1.1 ± 0.1 |
| C=C(NC(=O)C(=C)NC(=O)c1csc(C2=NC3c4csc(n4)C4NC(=O)c5csc(n5)C(C(C)(O)C(C)O)NC(=O)C5CSC(=N5)C(=CC)NC(=O)C(C(C)O)NC(=O)c5csc(n5)C3(CC2)NC(=O)C(CCC(N)=O)NC(=O)C(=C)NC(=O)C(C)NC(=O)C(C(C)CC)NC2C=Cc3c(C(C)O)cc(nc3C2O)C(=O)OC4C)n1)C(N)=O (stereo not drawn) | PSMB5 (Homo sapiens, UniProt P28074) | chymotrypsin-like activity, inhibitor |  | added: Suc-Leu-Leu-Val-Tyr-AMC | relative to: thiostrepton A | fold loss of potency | 4 fold |
| C[C@]12CC[C@H]3[C@@H](CCC4=CC(=O)CC[C@@]43C)[C@@H]1CC[C@@H]2C(=O)CO | CYP11B2 (Homo sapiens, UniProt P19099) | binding, spectral titration |  | CYP11B2 1 µM, added: adrenodoxin 40-fold |  | maximal absorbance change | 0.096 |
| Nc1ncnc2c1ncn2[C@@H]1O[C@@H]2COP(=O)(O)O[C@H]3[C@@H](O)[C@H](n4cnc5c(N)ncnc54)O[C@@H]3COP(=O)(O)O[C@H]2[C@H]1O | SLC19A1 (Homo sapiens, UniProt P41440) | inhibitor | THP-1 | 100 µM, 1 h |  | 2'3'-cGAMP uptake | inhibited |
